Results from different studies.
Values joined by “and” are separate records of one study, mostly repeats; a detail may differ. ± marks the error that the study gave.
ADORA2A: Adenosine receptor A2a (ADORA2A, Homo sapiens, UniProt P29274)
JAK1: Tyrosine-protein kinase JAK1 (JAK1, Homo sapiens, UniProt P23458)
uncharacterized protein: uncharacterized protein (Spodoptera exigua, UniProt F1CEY0)

COc1ccc(-c2cc(=O)c3c(O)c(O)c(OC)cc3o2)cc1  Km (O-methyltransferase (Citrus reticulata); C6 O-methylation, substrate; added: S-adenosylmethionine): 18.1 ± 1.45 µM
Nc1ncnc2c1ncn2[C@@H]1O[C@H](COP(=O)(O)CP(=O)(O)OP(=O)(O)O)[C@@H](O)[C@H]1O  calcium influx (P2X purinoceptor 1 (P2RX1, Homo sapiens, UniProt P51575, D170A); calcium influx; 31.6 nM; relative to: ionomycin response): 1.64%
Cc1ccc(C(=O)Nc2ccc3ccccc3c2)o1  inhibition (Sodium channel protein type 3 subunit alpha (Scn3a, Rattus norvegicus, UniProt P08104); ion current, whole-cell patch-clamp; 10 µM, rNaV1.3): 5.58%
Nc1nc2c(ncn2[C@@H]2O[C@H](COP(=O)(O)O)[C@@H](O)[C@H]2O)c(=O)[nH]1  -TΔS (GUK1, part: ATPγS-bound (Homo sapiens, UniProt Q16774); binding, ITC; added: ATPγS 0.5 mM): 9.08 kcal/mol and 8.63 kcal/mol and 10 kcal/mol
NC(c1csc(Nc2nncc3ccccc23)n1)c1ccccc1Cl (stereo not shown)  ligand efficiency (ADORA2A; radioligand displacement; added: [3H]ZM241385): 0.31
Cc1cc(-c2ccnc3[nH]cc(F)c23)cc(F)c1[C@@]1(O)[C@H](C)CN(C(=O)CN)C[C@@H]1C  probe labelling inhibition (JAK1; ATP/ADP probe binding, KiNativ; HEK293T lysate; 1 µM, activation loop domain 2): 35.1%
CCCCCCCCCCCO  relative fluorescence (uncharacterized protein; binding, competitor, fluorescence displacement; 20 µM, pH 7.4, added: 1-NPN 20 µM; relative to: 1-NPN alone): 34.2%
O=c1cc(CO)occ1[O-].[Cl-].[W+4].c1cc[cH-]c1.c1cc[cH-]c1  entropy change (Albumin (ALB, Homo sapiens, UniProt P02768); binding, van't Hoff fluorescence quenching; concentration not given): 60.3 J/(mol K)
CC(=O)N[C@@H](CCCNC(=N)N)C(=O)N[C@@H](CCCNC(=N)N)C(=O)N[C@H]1CSSC[C@@H](C(=O)N[C@@H](CCCNC(=N)N)C(=O)N[C@@H](CCCNC(=N)N)C(N)=O)NC(=O)[C@H](C(C)C)NC(=O)[C@@H]2CCCN2C(=O)[C@H](CC(=O)O)NC(=O)[C@H](Cc2ccc(O)cc2)NC(=O)[C@H](CO)NC(=O)[C@H](CC2CCCC2)NC(=O)[C@H](Cc2ccc(O)cc2)NC(=O)[C@H](CC(C)C)NC(=O)[C@@H]2CCCN2C1=O  lowest bound protein concentration (GTPase KRas, GDP-bound (KRAS, Homo sapiens, UniProt P01116, G12D); affinity selection mass spectrometry; mixture library 1, added: protein titration up to 5 µM; lower is stronger binding): 5 µM
CC1CCCN(C(=O)c2cc3ncccn3n2)C1 (stereo not shown)  log fold enrichment (DNA mismatch repair protein Msh6 (Homo sapiens, UniProt P52701); binding, affinity selection mass spectrometry; relative to: other proteins in batch): -0.0792
O=C(COP(=O)(O)O)[C@@H](O)[C@H](O)[C@H](O)COP(=O)(O)O  thermal stability ratio (Pre-mRNA-processing-splicing factor 8 (PRPF8, Homo sapiens, UniProt Q6P2Q9); thermal proteome profiling; HepG2 cell lysate; concentration not given, 57 over 37 °C, mean; relative to: compound over control): 0.542
CCN(CCO)CCCC(C)Nc1ccnc2cc(Cl)ccc12 (stereo not shown)  half-inactivation voltage (V1/2) (Sodium channel protein type 5 subunit alpha (SCN5A, Homo sapiens, UniProt Q14524); sodium current, whole-cell patch clamp; 300 µM, without ATX-II): -97.2 mV and -82.4 mV and -92 mV
CCCCCCCCC(=O)c1cc(O)c(O)c(O)c1  activation (Retinoic acid receptor RXR-alpha (RXRA, Homo sapiens, UniProt P19793); reporter gene, Gal4 hybrid reporter; 10 µM; relative to: vehicle): 2.31 fold
Oc1ccccc1-c1n[nH]cc1-c1ccnc2ccccc12  log2 fold change (Aurora kinase (IPL1, Candida albicans, UniProt Q59S66); kinase binding, MIB/MS competition; Candida albicans lysate; 10 µM; relative to: DMSO, negative = stronger binding): 0.2
CC[C@H](C)[C@@H]1NC(=O)[C@H](C)NC(=O)[C@H]([C@@H](C)CC)NC(=O)[C@H](CCC(N)=O)NC(=O)[C@H](C)NC(=O)[C@H](CCCNC(=N)N)NC(=O)[C@H](C(C)C)NC(=O)[C@H](CC(C)C)NC(=O)[C@H](CCC(=O)O)NC(=O)[C@H](CCCNC(=N)N)NC(=O)CNC(=O)[C@@H](NC(=O)[C@H](CC(C)C)NC(=O)[C@H](CCCCN)NC(=O)[C@@H](NC(=O)[C@@H](NC(=O)[C@H](CCC(=O)O)NC(=O)[C@H](CCC(=O)O)NC(=O)[C@H](CCSC)NC(=O)[C@H](Cc2c[nH]c3ccccc23)NC(=O)[C@H](CO)NC(=O)[C@@H](N)CC(=O)O)C(C)C)[C@@H](C)CC)CSSC[C@@H]2NC(=O)[C@@H](NC(=O)[C@H](CCCCN)NC(=O)[C@H](CC(N)=O)NC(=O)[C@H](C)NC(=O)[C@H](CC(C)C)NC(=O)[C@H](C)NC(=O)[C@H](CO)NC(=O)[C@H](Cc3ccc(O)cc3)NC(=O)[C@H](CC(C)C)NC(=O)[C@H](CCC(N)=O)NC(=O)c3ccc(-c4c5ccc(=[N+](C)C)cc-5oc5cc(N(C)C)ccc45)c(C(=O)[O-])c3)CSSC[C@H](NC(=O)CNC(=O)[C@H](C(C)C)NC(=O)[C@H](Cc3c[nH]cn3)NC2=O)C(=O)N[C@@H]([C@@H](C)O)C(=O)N[C@@H](CCCCN)C(=O)N[C@@H](CCCNC(=N)N)C(=O)N[C@@H](CO)C(=O)N[C@@H](CC(C)C)C(=O)N[C@@H](C)C(=O)N[C@@H](CCCNC(=N)N)C(=O)N[C@@H](Cc2ccccc2)C(=O)N[C@H](C(=O)O)CSSC[C@@H](C(=O)NCC(=O)N[C@@H](CCSC)C(=O)N[C@@H](CO)C(=O)N[C@H](C(=O)N[C@@H](Cc2c[nH]c3ccccc23)C(=O)N[C@@H](CO)C(=O)O)[C@@H](C)O)NC1=O  koff slow phase (Relaxin receptor 1 (RXFP1, Homo sapiens, UniProt Q9HBX9, F76A/Y80A); dissociation, NanoBRET; infinite dilution): 0.000954 s⁻¹
COCCN1C(=O)c2[nH]nc(-c3ccccc3O)c2C1c1ccc(F)cc1 (stereo not shown)  ligand efficiency (ADORA2A; radioligand displacement; added: [3H]ZM241385): 0.3
CC(=O)N[C@H](C(=O)N1C[C@H](O)C[C@H]1C(=O)NCc1ccc(-c2scnc2C)cc1)C(C)(C)SCCCCCCNC(=O)C[C@@H]1N=C(c2ccc(Cl)cc2)c2c(sc(C)c2C)-n2c(C)nnc21  ΔH (BRD2/VHL, BD1; with VCB (Homo sapiens, UniProt P25440+P40337); ITC; 25 °C, BRD2 BD1, ternary): -2.61 ± 0.05 kcal/mol
COc1cc(Nc2ncc3c(n2)-c2ccc(Cl)cc2C(c2c(F)cccc2OC)=NC3)ccc1C(=O)O  remaining activity (PDGFRB; kinase activity; 1 µM): 92%
CCn1c(-c2nc3cc(C(=O)N4CCC[C@@H](N)C4)cc(OC)c3n2C)cc2cccnc21  Ki' (Protein-arginine deiminase type-2 (PADI2, Homo sapiens, UniProt Q9Y2J8); mixed inhibitor; added: BAEE substrate, 10 mM CaCl2): 1130 ± 150 µM
C=CC(=O)N1CCC(COCC(=O)N2CCN(c3nc(-c4cnc(N)nc4C(F)F)nc(N4CCOC[C@@H]4C)n3)CC2)CC1  remaining binding (Serine/threonine-protein kinase ULK1 (ULK1, Homo sapiens, UniProt O75385); KINOMEscan; 1 µM; relative to: DMSO control): 68%
Clc1ccccc1C(c1ccccc1)(c1ccccc1)n1ccnc1  current density (TRPM3 (Homo sapiens, UniProt Q9HCF6); whole-cell patch clamp; HEK-293T expressing hTRPM3-YFP; 10 µM, at +80 mV, not DTT-treated, added: pregnenolone sulfate 40 µM): -0.52 ± 0.2 pA/pF
CCCCCCCCCCOC(C)=O  relative fluorescence (uncharacterized protein; binding, competitor, fluorescence displacement; 20 µM, pH 7.4, added: 1-NPN 20 µM; relative to: 1-NPN alone): 40.1%
N[C@H](CNC(=O)c1ccc(-c2ccccc2Br)s1)C(=O)O  log EC50 (Glutamate receptor ionotropic, NMDA 1, with GluN2C (Grin1, Rattus norvegicus, UniProt P35439, V689I); receptor activation; rat; added: glutamate 300 µM): -1.9 µM
CC[C@H](C)[C@H](NC(=O)[C@H](CCCCN)NC(=O)[C@@H](NC(=O)[C@H](CCCCN)NC(=O)[C@H](CCCCN)NC(=O)CNC(=O)[C@H](CO)NC(=O)[C@H](C)NC(=O)[C@@H](NC(=O)[C@H](Cc1c[nH]cn1)NC(=O)[C@H](Cc1ccccc1)NC(=O)CN)[C@@H](C)O)C(C)C)C(=O)N[C@@H](C)C(=O)N[C@@H](CCCCN)C(=O)N[C@@H](CCC(=O)O)C(=O)N[C@@H](CO)C(=O)N[C@@H](CC(C)C)C(=O)N[C@@H](CC(=O)O)C(=O)N[C@@H](CCCCN)C(=O)N[C@H](C(=O)N[C@@H](CCCCN)C(=O)N[C@@H](CC(N)=O)C(=O)N[C@@H](Cc1ccccc1)C(=O)N[C@@H](Cc1ccccc1)C(=O)O)C(C)C  ΔH (human RAD51 F86E monomer; ITC; pH 7.4, 25 °C, 5 µM protein): -11.5 ± 2.5 kcal/mol
O=C1NC(=O)C2(N1)c1ccccc1-c1ccccc12  reversal of binding enhancement (GABA-A receptor alpha-1/beta-3, with gamma-2 subunit (GABRA1/GABRB3, Homo sapiens, UniProt P14867+P28472); [3H]muscimol binding; concentration not given, unit not given, added: [3H]muscimol and anaesthetic; lower is stronger): 0.67
CC(C)c1cccc(C(C)C)c1O  ΔV1/2 of activation (Voltage-gated sodium channel NavMs (Magnetococcus marinus, UniProt A0L5S6); allosteric modulator, whole-cell patch clamp; HEK293; 1 µM, pH 7.3, 22–25 °C): -3.14 ± 1.47 mV
NCCS(=O)(=O)O  normalised MST signal (Sodium- and chloride-dependent taurine transporter (SLC6A6, Homo sapiens, UniProt P31641, S402A); binding, microscale thermophoresis; 61 nM, room temperature, added: 50 nM labelled protein; higher = more binding): 0.0243
CC[C@@H]1[C@H](F)C(=O)N[C@@H]1COc1nccc2cc(C(N)=O)c(OC)cc12  inhibition (SNF-related serine/threonine-protein kinase (SNRK, Homo sapiens, UniProt Q9NRH2); ATP-site probe binding, ActivX profiling; THP-1 cell lysate; 0.04 mM, Lys2 site): 1.9%
N[C@H](CNC(=O)c1cc(Br)c(-c2ccccc2F)s1)C(=O)O  log EC50 (Glutamate receptor ionotropic, NMDA 1, with GluN2C (Grin1, Rattus norvegicus, UniProt P35439, F754L); receptor activation; rat; added: glutamate 300 µM): -1.72 µM
O=c1cc(-c2ccc([N+](=O)[O-])cc2)[nH]c2c(-c3ccc(Cl)cc3)c(Cc3ccccc3)nn12  melting temperature shift (Ras-related GTP-binding protein A (RRAGA, Homo sapiens, UniProt Q7L523); thermal stability, binder, thermal proteome profiling; RD, cell lysate; 50 µM, 0.5% DMSO; relative to: DMSO vehicle): 3.6 °C
Cc1cc(-c2ccnc3[nH]cc(F)c23)cc(F)c1[C@@]1(O)[C@H](C)CN(C2CCS(=O)(=O)CC2)C[C@@H]1C  probe labelling inhibition (JAK1; ATP/ADP probe binding, KiNativ; HEK293T lysate; 10 µM, activation loop domain 2): 30.1%

For quick reference, copied from above:
Oc1ccccc1-c1n[nH]cc1-c1ccnc2ccccc12  log2 fold change (Aurora kinase (IPL1, Candida albicans, UniProt Q59S66); kinase binding, MIB/MS competition; Candida albicans lysate; 10 µM; relative to: DMSO, negative = stronger binding): 0.2
CC[C@H](C)[C@@H]1NC(=O)[C@H](C)NC(=O)[C@H]([C@@H](C)CC)NC(=O)[C@H](CCC(N)=O)NC(=O)[C@H](C)NC(=O)[C@H](CCCNC(=N)N)NC(=O)[C@H](C(C)C)NC(=O)[C@H](CC(C)C)NC(=O)[C@H](CCC(=O)O)NC(=O)[C@H](CCCNC(=N)N)NC(=O)CNC(=O)[C@@H](NC(=O)[C@H](CC(C)C)NC(=O)[C@H](CCCCN)NC(=O)[C@@H](NC(=O)[C@@H](NC(=O)[C@H](CCC(=O)O)NC(=O)[C@H](CCC(=O)O)NC(=O)[C@H](CCSC)NC(=O)[C@H](Cc2c[nH]c3ccccc23)NC(=O)[C@H](CO)NC(=O)[C@@H](N)CC(=O)O)C(C)C)[C@@H](C)CC)CSSC[C@@H]2NC(=O)[C@@H](NC(=O)[C@H](CCCCN)NC(=O)[C@H](CC(N)=O)NC(=O)[C@H](C)NC(=O)[C@H](CC(C)C)NC(=O)[C@H](C)NC(=O)[C@H](CO)NC(=O)[C@H](Cc3ccc(O)cc3)NC(=O)[C@H](CC(C)C)NC(=O)[C@H](CCC(N)=O)NC(=O)c3ccc(-c4c5ccc(=[N+](C)C)cc-5oc5cc(N(C)C)ccc45)c(C(=O)[O-])c3)CSSC[C@H](NC(=O)CNC(=O)[C@H](C(C)C)NC(=O)[C@H](Cc3c[nH]cn3)NC2=O)C(=O)N[C@@H]([C@@H](C)O)C(=O)N[C@@H](CCCCN)C(=O)N[C@@H](CCCNC(=N)N)C(=O)N[C@@H](CO)C(=O)N[C@@H](CC(C)C)C(=O)N[C@@H](C)C(=O)N[C@@H](CCCNC(=N)N)C(=O)N[C@@H](Cc2ccccc2)C(=O)N[C@H](C(=O)O)CSSC[C@@H](C(=O)NCC(=O)N[C@@H](CCSC)C(=O)N[C@@H](CO)C(=O)N[C@H](C(=O)N[C@@H](Cc2c[nH]c3ccccc23)C(=O)N[C@@H](CO)C(=O)O)[C@@H](C)O)NC1=O  koff slow phase (Relaxin receptor 1 (RXFP1, Homo sapiens, UniProt Q9HBX9, F76A/Y80A); dissociation, NanoBRET; infinite dilution): 0.000954 s⁻¹
